Results pooled from the literature.
Parts stem from different laboratories: compare values within a part only.

Study 1 — method: protein-binding microarray; form: double-stranded DNA, one strand shown; matrix: in vitro; tested at: 0.8 µM; setting: whole 60-bp probe, no competitor; direction: higher = stronger binding; shared flanks, not repeated: … GTCTTGATTCGCTTGACGCTGCTG
Target: Centromere-binding protein 1, full length, N-terminal tag (CBF1, Saccharomyces cerevisiae, UniProt P17106, residues 1-351)
Chain of UniProt P17106 (whole entry, looked up): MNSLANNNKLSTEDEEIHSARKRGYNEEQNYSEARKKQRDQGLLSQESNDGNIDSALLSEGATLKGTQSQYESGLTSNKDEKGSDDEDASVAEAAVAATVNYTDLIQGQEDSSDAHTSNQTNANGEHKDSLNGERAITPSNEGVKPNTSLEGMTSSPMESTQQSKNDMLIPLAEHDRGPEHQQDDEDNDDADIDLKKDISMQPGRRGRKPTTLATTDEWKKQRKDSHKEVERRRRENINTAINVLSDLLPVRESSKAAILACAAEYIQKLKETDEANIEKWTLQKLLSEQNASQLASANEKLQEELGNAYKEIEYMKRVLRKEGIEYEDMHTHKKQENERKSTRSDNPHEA
Oligonucleotide	fluorescence intensity [a.u.]
CTATTTGCGCACAAAGTGGTGACGTACAAGTTCTTC	540
TGTACGAAGCTATCAGCCGTGCCTATAGTAGTTAGG	491
GAAAGAAAAAAAGATCACGCGACTCTTGCCGGATAG	3750
CTAACCAACCGGCGTCACCAAAAGCAAAAATATTTC	522
GAACCGGTGGCATGCCACATGGCGAAACCCTTATAG	600
GAAGTTTTCGTCGTGCATCAGGAACGATCTTCTTAG	554
GAACTAAAGGAGGTGCACGCATTATGGAGACCATAG	535
GAAAATGTTTACACGAACGTGCCTGATCGACATTAG	609

Study 2 — action: inhibitor; tested at: 20 µM
Target: Replicase polyprotein 1ab, nsp13 helicase (rep, Severe acute respiratory syndrome coronavirus 2, UniProt P0DTD1)
Compound	inhibition
NCC(CC(=O)O)c1ccc(Cl)cc1 (racemic)	-2.69%
S=C(NCCc1ccccn1)Nc1ccc(Br)cn1	8.82%
Nc1nc(O)c2ncn(CCC(CO)CO)c2n1	10.7%
O=C(CCCN1CCC2(CC1)C(=O)NCN2c1ccccc1)c1ccc(F)cc1	2.52%
N=C(N)NC(=N)N1CCOCC1	-1.64%
CCOC(=O)[C@@H](N)Cc1ccc(O)c(O)c1	3.52%
CN(CCOc1ccc(NS(C)(=O)=O)cc1)CCc1ccc(NS(C)(=O)=O)cc1	5.18%
Nc1ncnc2c1ncn2[C@@H]1O[C@H](COP(=O)(O)O)[C@@H](O)[C@H]1O	0.47%
CCN(CC)CCCCNc1ncc2cc(-c3c(Cl)cccc3Cl)c(NC(=O)NC(C)(C)C)nc2n1	-2.02%
CCCCCCN(CCCCCC)C(=O)Cc1c(-c2ccc(F)cc2)[nH]c2ccccc12	-2.57%
CCN(CC)C(=O)/C(C#N)=C/c1cc(O)c(O)c([N+](=O)[O-])c1	60%
COc1ccc(C2(CNC(=O)c3ccc(NC(=O)c4ccco4)cc3)CCOCC2)cc1	0.73%
O=C1Nc2ccc(Cl)cc2[C@@](C#CC2CC2)(C(F)(F)F)O1	-2.89%
Nc1ncnc2c1ncn2[C@@H]1O[C@H](CO)[C@@H](O)[C@H]1O	-0.24%
Cc1nc2c(OCc3ccccc3)cccn2c1CC#N	0.44%
O=c1cc(-c2cccc3c2Sc2ccccc2S3)oc(N2CCOCC2)c1	9.94%
CC(C)Oc1ccc(-c2cnc3c(-c4ccnc5ccccc45)cnn3c2)cc1	-2.9%
Cc1nc2ccc(-n3ncc(C(=O)c4cc5ccccc5[nH]4)c3N)cc2[nH]1	7.97%
COc1c(C)c2c(c(O)c1C/C=C(\C)CCC(=O)OCCN1CCOCC1)C(=O)OC2	0.44%
NS(=O)(=O)c1cc(C(=O)O)c(NCc2ccco2)cc1Cl	3.34%
C[C@H](N)C(=O)O	-1.29%
N#Cc1ccncn1	0.14%
CC(=O)NCCc1c(Cc2ccccc2)[nH]c2ccccc12	-2.84%
Cc1cc(C)c(CNC(=O)c2cc(-c3ccc(N4CCN(C)CC4)nc3)cc3c2c(C)cn3C(C)C)c(=O)[nH]1	11.9%
CN1c2c([nH]c(N)nc2=O)NC[C@@H]1CNc1ccc(C(=O)N[C@@H](CCC(=O)O)C(=O)O)cc1	-3.07%

Study 3 — method: RNA Bind-n-Seq; form: RNA; matrix: in vitro; tested at: 365 nM; relative to: no-protein control; direction: higher = stronger binding
Target: RNA binding protein fox-1 homolog 2, RRM domain, GST-SBP tag (RBFOX2, Homo sapiens, UniProt O43251-10, residues 100-194)
Setting: natural RNA segment, single round, ends assumed
Shared flanks, not repeated: GGGAGUUCUACAGUCCGACGAUC … UGGAAUUCUCGGGUGCCAA
Construct (chain): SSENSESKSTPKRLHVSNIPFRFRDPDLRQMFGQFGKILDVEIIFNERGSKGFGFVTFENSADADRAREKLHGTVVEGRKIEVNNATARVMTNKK
Oligonucleotide	RBNS enrichment (R)
GCAGACUUUCUUUUGUCUGUUUCUAAAAUGUGAAGCUUUAGGACCAAAUUGUUAGACAGCAUCAGGAUUGCGGAUUAUCUCAAGUAGAUUUUGUUAGAGUUCAGAGCACA	6.21
CAGAAGAUCUUAUCUUGCCAGGCCGUGGAGAGCUACAAGAAAGAUUCCUGAGAAAUGUCCAACUGCUAGGAGUCUGACCAAAUUACAGAUGUGUGCCAUACUCUGGUUCU	0.508
GGUAAAAAUGAGACUCAAGAGGCAUCACUGGCCAUUGUACCAGAUUAUUCCUGCUCGCCAGUGAGAGGCGUUUAAGUCGCGCUGUGCAUCGUACCUUCAGUUUAGGCUGU	1
UCAGUUUACAUUUCUGAUACAUGCAGAUAGCAGAUGUCUUUAAAUGAAAUACAUGUAUAUUGUGUAUGGACUUAAUUAUGCACAUGCUCAGAUGUGUAGACAUCCUCCGU	0.322
AUUUAAAAGGAUGGCAAGUUGCAUCAGAAAGCUUUAUUUUGAGAUGUAAAAAGAUUCCCAAACGUGGUUACAUUAGCCAUUCAUGUAUGUCAGAAGUGCAGAAUUGGGGC	0.602
UGUUUAUAAACAAGACUAAGUCUGACUUCAUAAGGGCUUUCUAAAACCAUUUCUGUCCAAGAGAAAAUGACUUUUUGCUUUGAUAUUAAAAAUUCAAUGAGUAAAACAAA	0.41
GACUCCAUAGAUUUGAAUUCUUUUCCGUAUGUGGGGAUGGUUGCUACUACCUCACCGCCAAGUCCUCCCCCAGCUGUUACCACAUGAGGGAAUACAAGGUGCUAGGUACC	0.246
GGGGUGCCCCACACAGCUAGAGCGGCCAGGAGAGCGCCUCCUAACCACCAGCCGUUCCUGAUCUCAGGAGCCUUGAAGGGCUGGGCUCUUGCCUUCCUGGAGUAAAUAUU	0.346

Study 4 — method: protein binding microarray; form: double-stranded DNA, one strand shown; matrix: in vitro; tested at: not given; relative to: not given; direction: higher = stronger binding
Target: Histone acetyltransferase KAT6A, winged helix 2, GST fusion (KAT6A, Homo sapiens, UniProt Q92794, residues 85-181)
Setting: 8-mer, flanks averaged, mean of 2 arrays, mostly near background
Target sequence (chain): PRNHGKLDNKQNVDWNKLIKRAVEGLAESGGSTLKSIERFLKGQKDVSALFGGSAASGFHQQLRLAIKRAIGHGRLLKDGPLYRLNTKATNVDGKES
Oligonucleotide	E-score
ATACGGCC	0.12
GGCCTCCA	0.0213
GTAGATCA	0.125
ACATCCAC	0.0419
ATGATTAA	0.115
CCTGCCCA	0.092
ATAGTTTC	-0.0905
AATTGTTA	-0.00305

Further values, each from its own experiment
rep main protease: Replicase polyprotein 1ab, main protease (rep, Severe acute respiratory syndrome coronavirus 2, UniProt P0DTD1)
Structure (SMILES)	target or system	test	test system	conditions	how to read	measurement	result
CC1=C(CC(=O)O)c2cc(F)ccc2/C1=C\c1ccc([S+](C)[O-])cc1 (centres unmarked)	HEK-293T	pseudovirus infection, FDA-approved drug library screen	VSV pseudotyped with SARS-CoV-2 spike	10 µM, 16 h	relative to: vehicle-treated	GFP-positive cells	96.6%
N#CSc1cc(SC#N)c(N)nc1N	rep main protease	enzyme activity, inhibitor		with: DTT		IC50	4.4 µM
CN(C)CCOc1ccc(/C(=C(/CCCl)c2ccccc2)c2ccccc2)cc1	HEK-293T/ACE2			10 µM, 16 h		viability	100%
O=C(O)C(=O)CBr	rep main protease	enzyme activity, inhibitor		20 µM, hit confirmation, no DTT		inhibition	74%
